{"data": "Results gathered from unrelated publications", "target": "Serine/threonine-protein kinase pim-3 (PIM3, Homo sapiens, UniProt Q86V86)"}
{"Structure (SMILES)": "COc1ccc(C(=O)/C=C/c2ccccc2-c2c[nH]c3ccc(C#N)cc23)c(O)c1", "test": "enzyme activity, inhibitor", "setting": "20 µM", "endpoint": "inhibition", "result": "28%"}
{"Structure (SMILES)": "CNC(=O)C1CCN(c2cc(C)c(F)cc2NC(=O)c2ccc(-c3cc(O)ccc3C)c(C)c2)CC1", "test": "binding, competition with immobilised ligand", "setting": "1 µM", "endpoint": "remaining binding", "result": "47%"}
{"Structure (SMILES)": "COc1cc(Nc2nccc(-c3cnn4nc(OC)ccc34)n2)cc(C(F)(F)F)c1", "test": "binding, competition with immobilised ligand", "setting": "1 µM", "endpoint": "remaining binding", "result": "93%"}
{"Structure (SMILES)": "CN1CCN(Cc2ccc(NC(=O)c3cccc(C#Cc4cnc(N)c5ncccc45)c3)cc2C(F)(F)F)CC1", "test": "cell-free assay, competition with immobilised ligand", "setting": "0.5 µM", "endpoint": "remaining binding", "result": "100%"}
{"Structure (SMILES)": "NC(=O)[C@@H](O)C[C@H]1CCc2sc3ncnc(O[C@H]4CC[C@H](N5CCOCC5)CC4)c3c21", "test": "enzyme activity, inhibitor", "setting": "10 µM", "endpoint": "inhibition", "result": "19%"}
{"Structure (SMILES)": "Cc1cccc(-c2ccc3nc(NC(=O)C4CCCO4)nn3c2)c1 (centres unmarked)", "test": "enzyme activity, Dundee kinase panel", "setting": "10 µM", "endpoint": "remaining activity", "result": "91%"}
{"Structure (SMILES)": "Cc1ccc(-c2c(/C=C(\\C#N)C(=O)NC(C)C)n(CCCO)c3ncnc(N)c23)cc1", "test": "cell-free assay, competition with immobilised ligand", "setting": "1 µM", "endpoint": "remaining binding", "result": "100%"}
{"Structure (SMILES)": "COc1ccc(NC(=O)Nc2ccc3c(c2)C(=O)N(C(C)CO)CC(C)C(CN(C)Cc2ccc4c(c2)OCO4)O3)cc1 (centres unmarked)", "test": "binding, competition with immobilised ligand", "setting": "10 µM", "endpoint": "remaining binding", "result": "72%"}
{"Structure (SMILES)": "Cc1cccc(-c2ccc3nc(NC(=O)C4CCCCC4)nn3c2)c1", "test": "enzyme activity, Dundee kinase panel", "setting": "10 µM", "endpoint": "remaining activity", "result": "99%"}
{"Structure (SMILES)": "Nc1ncc(-c2cc(-c3cnn(CC(F)(F)F)c3)ncc2F)nc1C(=O)NC1CNCC(F)C1 (centres unmarked)", "test": "enzyme activity", "setting": "1 µM", "scale": "relative to: DMSO control", "endpoint": "remaining activity", "result": "46.1%"}
{"Structure (SMILES)": "COc1c(OCCCN2CCOCC2)ccc2c1N=C(NC(=O)c1cnc(N)nc1)N1CCN=C21", "test": "kinase activity, inhibitor", "setting": "1 µM", "scale": "relative to: untreated control", "endpoint": "remaining activity", "result": "103%"}
{"Structure (SMILES)": "Nc1ncc2c(n1)-c1c([nH]c3ccc(C4=CCOCC4)cc13)CCC2", "test": "binding, competition with immobilised ligand", "setting": "1 µM", "endpoint": "remaining binding", "result": "100%"}
{"Structure (SMILES)": "C=CC(=O)Nc1cccc(-c2cnc3[nH]cc(C(=O)NC(C)(C)C)c3n2)c1", "test": "enzyme activity, inhibitor", "setting": "0.1 µM", "endpoint": "inhibition", "result": "-1%"}
{"Structure (SMILES)": "Cc1cccc(O[C@H]2CCC[C@@H](C(C)CNCc3ccncc3)C2)c1 (relative stereo)", "test": "enzyme activity, inhibitor", "setting": "1 µM", "endpoint": "inhibition", "result": "0%"}
{"Structure (SMILES)": "CNS(=O)(=O)Nc1nccc(Cc2c(C)c3ccc(Oc4ncccc4F)cc3oc2=O)c1F", "test": "binding, competition with immobilised ligand", "setting": "10 µM", "endpoint": "remaining binding", "result": "91%"}
{"Structure (SMILES)": "CNC1C[S+]2CC[S+]3CC[S+](C1)[Ru-4]321([N]=C=S)[n]2c3ccc(OC)cc3c3c4c(c5cc(F)c[n+]1c5c32)C(=O)NC4=O (centres unmarked)", "test": "KinomeScan", "setting": "0.1 µM", "scale": "relative to: untreated", "endpoint": "remaining binding", "result": "5.6%"}
{"Structure (SMILES)": "CCN1CCN(Cc2ccc(C(=O)Nc3ccc(C)c(NCc4cnc5[nH]ccc5c4OC)c3)cc2C(F)(F)F)CC1", "test": "binding, competition with immobilised ligand", "setting": "1 µM", "endpoint": "remaining binding", "result": "100%"}
{"Structure (SMILES)": "CC(=O)N1c2ccc(-c3ccc(CNC(=O)c4cn5cc(-c6cnc(N)nc6)nc(N6CCOCC6)c5n4)cc3)cc2CC[C@@H]1C", "test": "KINOMEscan", "setting": "10 µM", "endpoint": "remaining binding", "result": "99%"}
{"Structure (SMILES)": "CCn1cc(C(=O)O)c(=O)c2c(N)c(F)c(NC3CCCCC3)cc21", "test": "enzyme activity, inhibitor", "setting": "0.1 µM", "endpoint": "inhibition", "result": "> 50%"}
{"Structure (SMILES)": "CN1CCN(Cc2ccc(-c3ccc(CO[C@H]4CCC[C@@H]4NC(=O)c4cc(-c5cnn(C)c5)cnc4N)cc3)cc2)CC1", "test": "enzyme activity, inhibitor", "setting": "0.1 µM", "endpoint": "inhibition", "result": "2%"}
{"note": "For quick reference, copied from above:"}
{"Structure (SMILES)": "Cc1ccc(-c2c(/C=C(\\C#N)C(=O)NC(C)C)n(CCCO)c3ncnc(N)c23)cc1", "test": "cell-free assay, competition with immobilised ligand", "setting": "1 µM", "endpoint": "remaining binding", "result": "100%"}
{"Structure (SMILES)": "COc1ccc(NC(=O)Nc2ccc3c(c2)C(=O)N(C(C)CO)CC(C)C(CN(C)Cc2ccc4c(c2)OCO4)O3)cc1 (centres unmarked)", "test": "binding, competition with immobilised ligand", "setting": "10 µM", "endpoint": "remaining binding", "result": "72%"}
{"Structure (SMILES)": "Cc1cccc(-c2ccc3nc(NC(=O)C4CCCCC4)nn3c2)c1", "test": "enzyme activity, Dundee kinase panel", "setting": "10 µM", "endpoint": "remaining activity", "result": "99%"}
